Measurements of several laboratories.
Protocols differ between the studies behind these lines. ± marks the error that the study gave. In brackets after ≈: the same amount, converted by molar mass.

| Structure (SMILES) | target or system | assay | system | setting | scale | quantity | result |
| --- | --- | --- | --- | --- | --- | --- | --- |
| Cc1ccc([C@@H]2O[C@H](CO)[C@@H](O)[C@H](O)[C@H]2O)cc1Cc1ccc(-c2ccc(F)cc2)s1 | – | – | Japanese type 2 diabetes patients | 100 mg, day 2, 24 h urine collection | relative to: baseline | urinary sodium excretion change | -18.9 mEq |
| O=C(N[C@H](Cc1c[nH]c2ccccc12)C(=O)Nc1ccncc1)c1ccc(-c2cc(C(F)(F)F)ccc2F)cc1F | – | – | Swiss Webster mouse, female, brain | oral, 50 mg/kg, 2 h, 20% Kolliphor vehicle | – | concentration | 2670 nM |
| CC(C)C[C@H](NC(=O)[C@H](CC(C)C)NC(=O)[C@H](Cc1c[nH]c2ccccc12)NC(=O)[C@H](CCC(=O)O)NC(=O)[C@@H](NC(=O)[C@H](Cc1ccccc1)NC(=O)[C@H](CCC(=O)O)NC(=O)[C@H](CCCCNC(=O)COCCOCCNC(=O)COCCOCCNC(=O)CC[C@H](NC(=O)CCCCCCCCCCCCCCCCCCC(=O)O)C(=O)O)NC(=O)[C@H](C)NC(=O)[C@H](CCCCN)NC(=O)[C@H](CCCCN)NC(=O)[C@H](CCC(=O)O)NC(=O)[C@H](CC(=O)O)NC(=O)[C@H](CC(C)C)NC(=O)[C@H](Cc1ccc(O)cc1)NC(=O)[C@H](CCCCN)NC(=O)[C@H](CO)NC(=O)[C@H](Cc1ccc(O)cc1)NC(=O)[C@H](CC(=O)O)NC(=O)[C@H](CO)NC(=O)[C@@H](NC(=O)[C@H](Cc1ccccc1)NC(=O)[C@@H](NC(=O)CNC(=O)[C@H](CCC(N)=O)NC(=O)C(C)(C)NC(=O)[C@@H](N)Cc1c[nH]cn1)[C@@H](C)O)[C@@H](C)O)C(C)C)C(=O)N[C@@H](CCC(=O)O)C(=O)NCC(=O)NCC(=O)N1CCC[C@H]1C(=O)N[C@@H](CO)C(=O)N[C@@H](CO)C(=O)NCC(N)=O | – | – | human, plasma | subcutaneous, 16 mg weekly, week 20 | – | Vss/F | 6.4 L |
| CC(C)[N+](C)(CCOC(=O)C1c2ccccc2Oc2ccccc21)C(C)C | – | – | mouse, CD-1, both sexes, whole blood | 5 µM, 120 min | – | remaining compound | 23.6% |
| CNCCOC12CC3(C)CC(C)(CC(Cn4ncc(-c5ccc(N6CCc7cccc(C(=O)Nc8nc9ccccc9s8)c7C6)nc5C(=O)O)c4C)(C3)C1)C2 | – | – | anaesthetised male beagle dogs | intravenous bolus, 0.03 mg/kg, 60 min | – | plasma concentration | 1.1 ± 0.1 ng/mL |
| CN1CC(=O)N2[C@H](c3ccc4c(c3)OCO4)c3[nH]c4ccccc4c3C[C@@H]2C1=O | – | – | human plasma | 1.50 ng/mL, 74 days, long-term storage -70 °C | – | accuracy | 99.5% |
| c1ccc2c(c1)ccc1cc3c(ccc4ccccc43)cc12 | – | – | polyethylene-water partitioning | PAH compilation | – | literature range of log K | 5.64 to 7.32 log units |
| Cc1nc2cccc(OCC(C)(C)C(=O)NC(C)C)c2c(N)c1C(=O)O | – | – | male Swiss albino CD-1 mouse, bone marrow | oral, 500 mg/kg, 48 h | – | PCE/NCE ratio | 0.87 |
| CCc1cc(C(=O)NC)c2nccc(N3CCc4c(cc(Cn5ccnc5)cc4-c4cn(C)nc4C(F)(F)F)C3=O)c2c1 | – | – | Sprague Dawley rats | oral, 50 mg/kg once daily, 7 days | – | reticulocyte haemoglobin content | 20.9 ± 1.03 pg |
| N=C(N)NCCC[C@@H](NC(=O)CCOCCOCCNC(=O)[C@H](CCCCNC(=O)CC[C@H](NC(=O)c1ccc(NCc2cnc3nc(N)[nH]c(=O)c3n2)cc1)C(=O)O)NC(=O)CO/N=C/[C@H](F)[C@@H](O)[C@H](O)[C@H](O)CO)C(=O)NCC(=O)N[C@H](CC(=O)O)C(N)=O [fluorine-18 labelled] | – | radio-HPLC | human plasma | 2.5 h, 37 °C | – | free fluorine-18 released | ≤ 20% |
| O=C(O)c1ccccc1 | – | binding, MIDAS equilibrium dialysis LC-MS | A2AR-BRIL thermostabilized | concentration not given | relative to: no-protein control | log2 fold change | -0.104 |
| Cn1cc(-c2ccc(-c3cncc(Cl)c3N3CCC4(CCNC4=O)CC3)cc2)cn1 | COLO 205 | gene expression, microarray, refers to: PRKCE mRNA | – | concentration not given, 6 h | relative to: untreated cells | log2 fold change | 2.27 |
| CCCCC1=NC2(CCCC2)C(=O)N1Cc1ccc(-c2ccccc2S(=O)(=O)Nc2noc(C)c2C)c(COCC)c1 | – | – | healthy adult volunteers, plasma | oral, 50 mg, single dose, fasted, crushed tablet | – | Tmax | 3.28 h |
| OCC1=C[C@@H](O)[C@@H]2C=CO[C@@H](O[C@@H]3O[C@H](CO)[C@@H](O)[C@H](O)[C@H]3O)[C@H]12 | – | – | rat plasma | 200 ng/mL, 2 weeks, -70 °C, post-preparative stability | – | accuracy | 95.8% |
| C=CC(=O)Nc1cc(Nc2nccc(-c3cn(C)c4ccccc34)n2)c(OC)cc1N(C)CCN(C)C | – | storage stability | human dried blood spot | 30 d, -80 °C, LLOQ level | – | recovery | 94.3% |
| CN(C(=O)n1cnc(-c2cccnc2)c1)[C@H]1CC[C@H](O)CC1 | – | – | rat, cortex | oral, 10 mg/kg daily for 5 days, 72 h | – | tissue concentration | 14.2 ± 1 ng/g |
| C/C(O)=C(\C#N)C(=O)Nc1ccc(C(F)(F)F)cc1 | – | – | CD-1 mice female, plasma | oral, 30 mg/kg leflunomide daily, 8 h | – | free plasma concentration | 314000 ± 111000 nM |
| Cc1cc(C)c(CNC(=O)c2cc(Cl)c3c(c2C)O[C@@](C)([C@H]2CC[C@H](N(C)C)CC2)O3)c(=O)[nH]1 | – | refers to: Anemia | human patients | oral, 200 mg once daily, 1 day onset day 14 | – | patients with TEAE | 8.3% |

| Structure (SMILES) | target or system | assay | system | setting | scale | quantity | result |
| --- | --- | --- | --- | --- | --- | --- | --- |
| CCN1/C(=C/C(C)=O)Sc2ccc(F)cc21 | – | – | cynomolgus monkey | oral, 30 mg/kg, 1 h post-dose | – | systolic blood pressure | 109 ± 9 mmHg |
| CNC(=O)c1ccccc1Nc1cc(Nc2ccc(N3CCOCC3)cc2OC)ncc1C(F)(F)F | – | – | soybean oil | 24 h, 25 °C | – | solubility | 220 µg/mL (≈ 439 µM) |
| C[C@H]1CN(C(=O)CC#N)[C@]12CCN(c1ncnc3[nH]ccc13)C2 | – | – | healthy Japanese males, plasma | oral, 5 mg single dose | – | Cmax | 56.5 ng/mL |
| NC1(C(=O)N[C@@H](CCO)c2ccc(Cl)cc2)CCN(c2nc[nH]c3nccc2-3)CC1 | – | – | human mCRPC patients | oral, twice daily, 4/7 days, grade 3/4, treatment-related, added: enzalutamide 160 mg daily | – | weight decreased incidence | 0% |
| NS(=O)(=O)c1cc(C(=O)O)c(NCc2ccco2)cc1Cl | – | refers to: haematoma | healthy men | oral, 8 days, treatment-emergent, crossover trial | – | subjects with adverse event | 0% |
| CC(C)(Sc1ccncc1-c1ccc(C#N)c2ccccc12)C(=O)O | – | – | human, urine | oral, 5 mg, added: febuxostat 20 mg | – | amount excreted in urine (0-24 h) | 69.3 µg |
| O=C(Nc1nc2cccc(-c3ccc(CN4CCS(=O)(=O)CC4)cc3)n2n1)C1CC1 | – | refers to: somnolence | rheumatoid arthritis patients | oral, 75 mg once daily, 4 weeks, any relatedness | – | treatment-emergent adverse events | 0% |
| [18F]c1ccc(-c2ccc3c(c2)[nH]c2ccncc23)cn1 | – | ex vivo biodistribution | APP/PS1 mouse, AD model, eyes | intravenous, 30 min | – | SUV | 2.74 ± 0.652 |
| COc1ccc2c(c1)CN(C(=O)CCN1CCC(Cc3ccccc3)CC1)CC[S@@+]2[O-] | – | – | anaesthetised beagle dog, male, plasma | intravenous, 2 mg/kg over 30 min, end of infusion | – | unbound plasma concentration | 470 ± 180 nM |
| CN[C@@H]1COc2c(S(=O)(=O)NC(=O)Nc3c4c(cc5c3CCC5)CCC4)cnn2C1 | – | – | human, urine | oral, 450 mg, 0-48 h | – | renal clearance | 10.1 mL/min |
| CNC(=O)c1ccc(-c2cnc3ncc(Cc4ccc5ncccc5c4)n3n2)cc1F | – | refers to: Headache | cancer patients | oral, 600 mg twice daily, all expansion cohorts, grade 3-4 | – | patients with adverse event | 0% |
| COc1cc2c3c(n(CCCN4CCOCC4)c(=O)c2cc1OC)-c1cc2c(cc1C3=O)OCO2 | – | – | Fischer 344 rats, male | intravenous bolus, 24 mg/m^2 | – | volume of distribution | 287 L/m² |
| CC[C@H](C)[C@@H]1NC(=O)[C@@](C)(NC(=O)[C@H](CCCNC(=N)N)NC(=O)[C@H](CC(C)C)NC(=O)[C@@H](NC(=O)[C@H](CCC(N)=O)NC(=O)[C@H](CC(C)C)NC(C)=O)[C@@H](C)O)CCCC=CCCC[C@@](C)(C(=O)N[C@@H](CC(C)C)C(=O)N[C@@H](Cc2ccc3ccccc3c2)C(N)=O)NC(=O)[C@H](CCCNC(=N)N)NC(=O)[C@H](CCC(N)=O)NC1=O | – | LC-MS | BALB/c nude mouse, plasma | 0 min | – | remaining compound | 100% |
| Cc1c(-c2ccc(N3CCc4cccc(C(=O)Nc5nc6ccccc6s5)c4C3)nc2C(=O)O)cnn1CC12CC3(C)CC(C)(C1)CC(OCCNCC[C@H](O)CO)(C3)C2 | – | – | beagle dog, male, anaesthetised | intravenous infusion, 0.3 mg/kg/min, 75 (unit not given) | relative to: vehicle | heart rate change | -10% |
| CN(C(=O)n1cnc(-c2ccc[n+]([O-])c2)c1)C1CCCCC1 | – | – | cynomolgus monkey, male, plasma | oral, 1.0 mg/kg | – | Tmax | 2 h |
| N#Cc1ccc2c(c1)[C@H]1CCCN(C(=O)c3ccc4[nH]cnc4c3)[C@H]1C2 | – | – | human males | 20 mg, day 15 | – | SHBG level | 39.7 nmol/L |
| Cc1ncc(CO)c(CN)c1O | – | binding, MIDAS equilibrium dialysis LC-MS | A2AR-BRIL thermostabilized | concentration not given | relative to: no-protein control | log2 fold change | -0.0952 |
| O=C(O)c1cccc(C(=O)O)c1 | – | – | betaine/propylene glycol DES-water | DES mass fraction 0.90 | – | apparent dissolution enthalpy | 5.95 kcal/mol |

A few entries again:
| Structure (SMILES) | target or system | assay | system | setting | scale | quantity | result |
| --- | --- | --- | --- | --- | --- | --- | --- |
| Cc1cc(C)c(CNC(=O)c2cc(Cl)c3c(c2C)O[C@@](C)([C@H]2CC[C@H](N(C)C)CC2)O3)c(=O)[nH]1 | – | refers to: Anemia | human patients | oral, 200 mg once daily, 1 day onset day 14 | – | patients with TEAE | 8.3% |
| Cc1ncc(CO)c(CN)c1O | – | binding, MIDAS equilibrium dialysis LC-MS | A2AR-BRIL thermostabilized | concentration not given | relative to: no-protein control | log2 fold change | -0.0952 |
| CNC(=O)c1ccc(-c2cnc3ncc(Cc4ccc5ncccc5c4)n3n2)cc1F | – | refers to: Headache | cancer patients | oral, 600 mg twice daily, all expansion cohorts, grade 3-4 | – | patients with adverse event | 0% |
| Cc1nc2cccc(OCC(C)(C)C(=O)NC(C)C)c2c(N)c1C(=O)O | – | – | male Swiss albino CD-1 mouse, bone marrow | oral, 500 mg/kg, 48 h | – | PCE/NCE ratio | 0.87 |
| COc1cc2c3c(n(CCCN4CCOCC4)c(=O)c2cc1OC)-c1cc2c(cc1C3=O)OCO2 | – | – | Fischer 344 rats, male | intravenous bolus, 24 mg/m^2 | – | volume of distribution | 287 L/m² |
| Cc1ccc([C@@H]2O[C@H](CO)[C@@H](O)[C@H](O)[C@H]2O)cc1Cc1ccc(-c2ccc(F)cc2)s1 | – | – | Japanese type 2 diabetes patients | 100 mg, day 2, 24 h urine collection | relative to: baseline | urinary sodium excretion change | -18.9 mEq |
